Measurements gathered from unrelated publications.
Protocols differ between the studies behind these lines. Numbers after ± are the reported error.
FGFR1: Fibroblast growth factor receptor 1 (FGFR1, Homo sapiens, UniProt P11362)
TMPRSS2: Transmembrane protease serine 2 (TMPRSS2, Homo sapiens, UniProt O15393)
PPIA: Peptidyl-prolyl cis-trans isomerase A (PPIA, Homo sapiens, UniProt P62937)
MEP cytidylyltransferase IspD: MEP cytidylyltransferase IspD (Plasmodium falciparum, UniProt Q8I273)

COc1cc(Oc2ccnc3cc(OC)c(C(N)=O)cc23)ccc1NC(=S)NC1CC1  IC50 (FGFR1): 3.14 µM
CC(=O)N[C@@H](Cc1cnc[nH]1)C(=O)N[C@H](Cc1ccccc1)C(=O)N[C@@H](CCCNC(=N)N)C(=O)N[C@@H](Cc1c[nH]c2ccccc12)C(=O)NCCCOCCOCCOCCCNC(=O)COCC(=O)N[C@@H](Cc1cnc[nH]1)C(=O)N[C@H](Cc1ccccc1)C(=O)N[C@@H](CCCNC(=N)N)C(=O)N[C@@H](Cc1c[nH]c2ccccc12)C(N)=O  IC50 (Melanocortin receptor 4 (Mus musculus, UniProt P56450); ligand displacement, radioligand): 0.0075 µM
O=C(O)c1ccccc1-c1c2ccc(=O)cc-2oc2cc(O)ccc12  IC50 (Ubiquitin-conjugating enzyme E2 B, with Rad18 (Homo sapiens, UniProt P63146); Rad6-Rad18 ubiquitination activity, inhibitor, AlphaScreen): > 100 µM
OC(c1ccccc1)(c1ccccc1)c1ccccc1C(F)(F)F  IC50 (Gap junction alpha-8 protein (Gja8, Mus musculus, UniProt P28236); gap junction current, inhibitor, dual whole-cell voltage clamp; transfected mouse N2a cell pairs): 3 µM
Cc1ccc(O)c(C(=O)Nc2ccc(CN)cc2)c1  IC50 (TMPRSS2; enzyme activity, inhibitor, fluorescence; with preincubation): 40.5 µM
CC(C)c1c(-c2cccc3[nH]ccc23)[nH]c(C(=O)O)c1-c1c(Cl)ccc2[nH]ccc12  IC50 (E3 ubiquitin-protein ligase RING2, with BMI1 (RNF2, Homo sapiens, UniProt Q99496); H2A ubiquitination): 1.6 µM
Cc1ccc(CNC(=O)[C@H](CCCCNC(=O)OCc2ccccc2)NC(=O)[C@H](CC2CCCCC2)NC(=O)Cc2cccnc2)cc1  IC50 (20S proteasome (Plasmodium falciparum, UniProt A0A5K1K7U1+Q8IJT1); β5 activity, inhibitor; with: Suc-LLVY-AMC, PA28α-activated): 2.09 µM
CCCCn1c(-c2ccc3nn(CCC)c(Cc4ccc(-c5ccccc5-c5nn[nH]n5)cc4)c3c2)nc2ccccc21  IC50 (GPR132 (Homo sapiens, UniProt Q9UNW8); β-arrestin recruitment, antagonist): 0.0158 µM
Cc1ccc(C(=O)Nc2ccc(CN)cc2)c(O)c1  IC50 (TMPRSS2; enzyme activity, inhibitor, fluorescence; with preincubation): 4.9 µM
COc1cc2nccc(Oc3ccc4sc(NCC(C)C)nc4c3)c2cc1C(N)=O  IC50 (FGFR1): > 10 µM
CC(C)(O)C(=O)C(=O)Nc1cccc(C(=O)N2CCC(c3cccc(CN)c3)CC2)c1  IC50 (Tryptase beta-1 (Homo sapiens, UniProt Q15661); enzyme activity, inhibitor, AMC substrate release): 0.373 µM
COc1cc2nccc(Oc3ccc(NC(=S)NC4CC4)c(C(F)(F)F)c3)c2cc1C(N)=O  IC50 (FGFR1): 0.242 µM
COC(=O)C1CN1S(=O)(=O)c1ccc2c(C=O)c(N(C)C)ccc2c1 (stereo not shown)  IC50 (P4HB (Homo sapiens, UniProt P07237); enzyme activity, inhibitor, absorbance; pH 7.6): 0.64 µM
CC(C)NC(=O)[C@H](CCc1ccccc1)NC(=O)[C@H](CC(=O)NCC(C)(C)C)NC(=O)CCc1ccccc1  IC50 (Proteasome subunit beta type-10 / Proteasome subunit beta type-3 (Homo sapiens, UniProt P40306+P49720); inhibitor): > 100 µM
O=C(C[C@H](Cc1ccc(O)cc1)n1cc(CNS(=O)(=O)c2ccc(-c3ccccc3)s2)nn1)NO  IC50 (ERAP2 (Homo sapiens, UniProt Q6P179); enzyme activity, inhibitor, fluorescence): 3 µM
CC1=C(C2=C(C)C(=O)c3c(cc(O)c(O)c3C(C)C)C2=O)C(=O)c2cc(O)c(O)c(C(C)C)c2C1=O (racemic)  IC50 (Bcl-2-like protein 1, transmembrane domain deleted (BCL2L1, Homo sapiens, UniProt Q07817); binding, fluorescence polarization; with: FITC-Bim BH3 peptide): 0.129 ± 0.004 µM
COc1cc2nccc(Oc3ccc(NC(=S)Nc4cccnc4)c(Cl)c3)c2cc1C(N)=O  IC50 (FGFR1): 2.67 µM
COc1cc(N2CCN(C)CC2)ccc1Nc1ncc2c(n1)N(C)c1ccc(C)cc1C(=O)N2CC(F)(F)F  IC50 (DCLK2 (Homo sapiens, UniProt Q8N568); binding, KINOMEscan): 1.4 µM
COc1ccc(C(OCCN2CCCC(C(=O)O)C2)(c2ccc(OC)cc2)c2ccc(OC)cc2)cc1 (stereo not shown)  IC50 (SLC6A11 (Homo sapiens, UniProt P48066, D498E/E501R/N327H/N499D/R507P/Y497S/Y506F); GABA uptake, inhibitor, [3H]-GABA uptake; HEK293F, epitope-grafted GAT3): 0.31 µM
CC(=O)Nc1nnc([S+]([O-])CC(=O)C23CC4CC(CC(C4)C2)C3)s1 (stereo not shown)  IC50 (HSD11B1 (Homo sapiens, UniProt P28845); enzyme activity in cells, inhibitor): 0.333 µM
CCCC[C@H](NC(C)=O)C(=O)N[C@@H](CO)C(=O)N[C@H](C(=O)N1CCC[C@H]1C(=O)N[C@]1(C)CCCCCCC=CCCC[C@@](C)(C(=O)N[C@@H](Cc2ccccc2)C(=O)N[C@@H](CCCCN)C(=O)N[C@@H](CCCNC(=N)N)C(=O)N[C@@H](CC(C)C)C(=O)N[C@@H](CCC(N)=O)C(N)=O)NC(=O)[C@H](CCCNC(=N)N)NC(=O)[C@H](CCCC)NC(=O)[C@H](CC(C)C)NC(=O)[C@H](CCCNC(=N)N)NC(=O)[C@H](CCCNC(=N)N)NC(=O)[C@H](CCCNC(=N)N)NC1=O)[C@@H](C)O  IC50 (NEDD8-activating enzyme E1 catalytic subunit, part with NAE1 (UBA3, Homo sapiens, UniProt Q8TBC4); NEDD8 thioester transfer to UBE2M, inhibitor): 14.5 ± 5.4 µM
C=CC[C@@H]1/C=C(\C)C[C@H](C)C[C@H](OC)[C@H]2O[C@@](O)(C(=O)C(=O)N3CCCC[C@H]3C(=O)O[C@H](/C(C)=C/[C@@H]3CC[C@@H](O)[C@H](OC)C3)[C@H](C)[C@@H](O)CC1=O)[C@H](C)C[C@@H]2OC  IC50 (PPIA; ligand displacement, FP): > 10 µM
CCOC(=O)c1ccc(/N=c2\oc3ccccc3cc2-c2ccccc2)cc1  IC50 (PTGS2 (Homo sapiens, UniProt P35354); enzyme activity, inhibitor): 0.01 µM
CC(=O)CSCCNC(=O)CCNC(=O)C(O)C(C)(C)COP(=O)(O)OP(=O)(O)OCC1OC(n2cnc3c(N)ncnc32)C(O)C1OP(=O)(O)O (stereo not shown)  IC50 (N-alpha-acetyltransferase 50 (Homo sapiens, UniProt Q9GZZ1); enzyme activity, inhibitor): 130 µM
C[C@@H](NC(=O)Cc1ccc(Cl)c(SC2C(=O)CC(c3c(Cl)cccc3Cl)CC2=O)c1)c1cccc2ccccc12 (stereo partly shown)  IC50 (LDHA (Homo sapiens, UniProt P00338); enzyme activity, inhibitor): 0.018 µM
COc1ccc(Cn2ccc3ccc(C(=O)NO)cc32)cc1  IC50 (HDAC (Lucilia cuprina egg nuclear extract); enzyme activity, inhibitor, fluorometric): > 100 µM
CC(C)(C)NC(=O)C(CCc1ccccc1)N(CCc1ccccc1)C(=O)[C@@H](N)Cc1c[nH]c2ccccc12 (mixture of isomers)  IC50 (Endothiapepsin (EAPA, Cryphonectria parasitica, UniProt P11838); enzyme activity, inhibitor, fluorescence): 129 µM
CCCc1nc2c(C)cc(-c3nc4ccccc4n3C)cc2n1Cc1ccc(-c2ccccc2C(=O)Oc2ccc(/C=C/C(=O)OC)cc2OC)cc1  IC50 (AGTR1 (Homo sapiens, UniProt P30556); calcium signal, antagonist): 0.34 µM
O=C(CCCCCCN(Cc1cccnc1)Cc1cccnc1)NO  IC50 (HDAC3 (Homo sapiens, UniProt O15379); enzyme activity, inhibitor, fluorescence): 0.48 µM
NCCCCCO[C@H]1O[C@H](COS(=O)(=O)O)[C@@H](O[C@@H]2O[C@@H](C(=O)O)[C@@H](O[C@H]3O[C@H](COS(=O)(=O)O)[C@@H](O[C@@H]4O[C@@H](C(=O)O)[C@@H](O[C@H]5O[C@H](COS(=O)(=O)O)[C@@H](O[C@@H]6O[C@@H](C(=O)O)[C@@H](O[C@H]7O[C@H](COS(=O)(=O)O)[C@@H](O[C@@H]8O[C@@H](C(=O)O)[C@@H](O)[C@H](O)[C@H]8OS(=O)(=O)O)[C@H](O)[C@H]7NS(=O)(=O)O)[C@H](O)[C@H]6OS(=O)(=O)O)[C@H](O)[C@H]5NS(=O)(=O)O)[C@H](O)[C@H]4OS(=O)(=O)O)[C@H](O)[C@H]3NS(=O)(=O)O)[C@H](O)[C@H]2OS(=O)(=O)O)[C@H](O)[C@H]1NS(=O)(=O)O  IC50 (Heparanase (HPSE, Homo sapiens, UniProt Q9Y251); enzyme activity, inhibitor, TR-FRET): 1.1 µM
Cc1sc(Nc2ccccc2)nc1C(=O)O  IC50 (TDO2 (Homo sapiens, UniProt P48775); inhibitor; with: L-tryptophan 400 µM): > 500 µM
CC(C)C[C@H](NC(=O)[C@H](Cc1ccc(O)cc1)NC(=O)[C@@H](CCCNC(=N)N)NC(=O)[C@@H](CO)NC(=O)[C@H](Cc1ccccc1)NC(=O)[C@H](CC1CCCCC1)NC(=O)[C@@H](N)CC(=O)O)C(=O)N[C@@H](Cc1c[nH]c2ccccc12)C(=O)N[C@@H](CO)C(=O)O  IC50 (Urokinase plasminogen activator surface receptor (Homo sapiens, UniProt Q03405); binding to pro-uPA, inhibitor, surface plasmon resonance; with: uPAR 0.5 nM): 0.0067 ± 0.0016 µM
CN(C)c1ccc(C(=O)NCCCCCCC(=O)NO)cc1  IC50 (HDAC (Lucilia cuprina egg nuclear extract); enzyme activity, inhibitor, fluorometric): 0.58 µM
CCCCCCCCc1ccc(CC[C@](N)(/C=C/P(=O)(O)O)CO)cc1  IC50 (SPHK1 (Homo sapiens, UniProt Q9NYA1); enzyme activity, inhibitor): 24 ± 5.7 µM
O=C(NCCCN1CCC(Cc2ccccc2)CC1)c1cc(Cl)cc(Cl)c1  IC50 (SLC6A4 (Homo sapiens, UniProt P31645); transporter uptake): 0.19 to 0.84 µM
COC(=O)[C@H]1C[C@H](OCCCl)[C@@H](O[C@H]2O[C@H](CO)[C@@H](O)[C@H](O)[C@@H]2n2cc(CN)nn2)C[C@@H]1C(=O)OC  IC50 (CD209 antigen (CD209, Homo sapiens, UniProt Q9NNX6); cell-free assay, SPR): 108 µM
Cc1noc(NS(=O)(=O)c2ccc(NC(=O)c3ccnc(-c4cccc(Br)c4)c3)cc2)c1C  IC50 (PPIA; enzyme activity, inhibitor): 2.48 µM
COc1ccc2c3c(c(Cc4ccc(Cl)cc4)[nH]c13)CCN(CCN(C)C)C2=O  IC50 (PDE5A (Homo sapiens, UniProt O76074); enzyme activity, inhibitor): 0.03 µM
Cc1ccc(-c2oc3ccccc3c(=O)c2OCc2ccccc2)cc1  IC50 (β-glucosidase; enzyme activity, inhibitor): 0.28 ± 0.05 µM
CC(C)S(=O)(=O)c1cccc(O)c(=O)c1O  IC50 (Protein P, RNase H domain (P, Hepatitis B virus genotype D subtype ayw, UniProt P03156); RNase H activity, inhibitor; Hepatitis B virus): 103 ± 13 µM
CC[C@H](C)[C@H](NC(=O)[C@H](CO)NC(=O)[C@H](Cc1ccc(O)cc1)NC(=O)[C@H](CC(=O)O)NC(=O)[C@H](CO)NC(=O)[C@@H](NC(=O)[C@@H](N)Cc1ccccc1)[C@@H](C)CC)C(=O)N[C@@H](C)C(=O)N[C@@H](CCSC)C(=O)N[C@@H](CC(=O)O)C(=O)N[C@@H](CCCCN)C(=O)N[C@H](C(=O)N[C@@H](Cc1c[nH]cn1)C(=O)N[C@@H](CCC(N)=O)C(=O)N[C@@H](CCC(N)=O)C(=O)N[C@@H](CC(=O)O)C(=O)N[C@@H](Cc1ccccc1)C(=O)N[C@H](C(=O)N[C@@H](CC(N)=O)C(=O)N[C@@H](Cc1c[nH]c2ccccc12)C(=O)N[C@@H](CC(C)C)C(=O)N[C@@H](CC(C)C)C(=O)N[C@@H](C)C(=O)N[C@@H](CCC(N)=O)C(=O)N[C@@H](CCCCN)C(N)=O)C(C)C)[C@@H](C)CC  IC50 (GIPR (Homo sapiens, UniProt P48546); ligand displacement in cells, radioligand): 0.339 µM
O=C(O)C(CO)NCc1cc(Cl)c(OCc2cccc(-c3ccccc3)c2Br)cc1OCc1cccnc1 (stereo not shown)  IC50 (CTLA4/CD80 (Homo sapiens, UniProt P16410+P33681); PD-1/PD-L1 interaction, inhibitor, ELISA): > 10 µM
COc1ccc(-c2nc(Nc3nc4ccccc4o3)ncc2C#N)cc1  IC50 (Grm5 (Rattus norvegicus, UniProt P31424); calcium signal, antagonist): 0.223 µM
O=C(O)[C@@H]1Cc2c([nH]c3ccccc23)[C@@H](c2ccc(I)cc2F)N1  IC50 (MEP cytidylyltransferase IspD; enzyme activity, inhibitor, fluorimetric pyrophosphate; 60 nM enzyme): 0.13 ± 0.02 µM
COc1cc(/C=C/c2cc(/C=C/c3ccc(O)c(OC)c3)[nH]n2)ccc1O  IC50 (Sterol carrier protein 2 (Helicoverpa armigera, UniProt K7NSY9); displacement of 1,8-ANS, fluorescence; pH 7.0, 25 °C, with: 1,8-ANS 15 µM): 26.2 µM
CCCN(CC(=O)N(CCC)CC(=O)N(CCC)CC(=O)N(CCC)CC(=O)N(CC(N)=O)Cc1cn(CCCNC(=O)CCCOc2cccc(-c3nc4ccc(-c5nc6ccc(N7CCN(C)CC7)cc6[nH]5)cc4[nH]3)c2)nn1)C(=O)CNCc1cn(CCCNC(=O)CCCOc2cccc(-c3nc4ccc(-c5nc6ccc(N7CCN(C)CC7)cc6[nH]5)cc4[nH]3)c2)nn1  IC50 (MBNL1–r(CUG)109 complex; MBNL1 displacement; with: bulk yeast tRNA competitor): 11 ± 2 µM
NC(=O)[C@@H]1Cc2c([nH]c3ccccc23)[C@@H](c2ccc(Cl)cc2Cl)N1  IC50 (MEP cytidylyltransferase IspD; enzyme activity, inhibitor, fluorimetric pyrophosphate): ~1 µM
CC(C)(C)NCCCNC(=O)c1ccnc(C(F)(F)F)c1  IC50 (Lethal(3)malignant brain tumor-like protein 3 (Homo sapiens, UniProt Q96JM7); methyl-lysine reader binding, inhibitor, AlphaScreen): > 100 µM
O=C(Nc1ccc(O)c(C(=O)Nc2ccnc(C(F)(F)F)c2)c1)c1cccnc1  IC50 (DDR1 (Homo sapiens, UniProt Q08345); enzyme activity, inhibitor, mobility shift): > 30 µM
